Published values gathered from unrelated publications.
Numbered parts are unrelated; each lists some results of a single study. Changes are numbered by the printed parent chain.
Sequence of UniProt Q8TDX7 (whole entry, looked up): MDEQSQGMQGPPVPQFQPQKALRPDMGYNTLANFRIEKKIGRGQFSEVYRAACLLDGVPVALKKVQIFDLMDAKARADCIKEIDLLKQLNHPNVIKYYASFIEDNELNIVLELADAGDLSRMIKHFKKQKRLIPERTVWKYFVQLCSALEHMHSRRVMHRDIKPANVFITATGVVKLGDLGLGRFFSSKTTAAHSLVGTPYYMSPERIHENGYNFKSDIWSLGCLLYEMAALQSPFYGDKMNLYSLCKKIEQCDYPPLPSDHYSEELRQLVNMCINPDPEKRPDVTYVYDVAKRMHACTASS
Sequence of UniProt Q8WXR4 (whole entry, looked up): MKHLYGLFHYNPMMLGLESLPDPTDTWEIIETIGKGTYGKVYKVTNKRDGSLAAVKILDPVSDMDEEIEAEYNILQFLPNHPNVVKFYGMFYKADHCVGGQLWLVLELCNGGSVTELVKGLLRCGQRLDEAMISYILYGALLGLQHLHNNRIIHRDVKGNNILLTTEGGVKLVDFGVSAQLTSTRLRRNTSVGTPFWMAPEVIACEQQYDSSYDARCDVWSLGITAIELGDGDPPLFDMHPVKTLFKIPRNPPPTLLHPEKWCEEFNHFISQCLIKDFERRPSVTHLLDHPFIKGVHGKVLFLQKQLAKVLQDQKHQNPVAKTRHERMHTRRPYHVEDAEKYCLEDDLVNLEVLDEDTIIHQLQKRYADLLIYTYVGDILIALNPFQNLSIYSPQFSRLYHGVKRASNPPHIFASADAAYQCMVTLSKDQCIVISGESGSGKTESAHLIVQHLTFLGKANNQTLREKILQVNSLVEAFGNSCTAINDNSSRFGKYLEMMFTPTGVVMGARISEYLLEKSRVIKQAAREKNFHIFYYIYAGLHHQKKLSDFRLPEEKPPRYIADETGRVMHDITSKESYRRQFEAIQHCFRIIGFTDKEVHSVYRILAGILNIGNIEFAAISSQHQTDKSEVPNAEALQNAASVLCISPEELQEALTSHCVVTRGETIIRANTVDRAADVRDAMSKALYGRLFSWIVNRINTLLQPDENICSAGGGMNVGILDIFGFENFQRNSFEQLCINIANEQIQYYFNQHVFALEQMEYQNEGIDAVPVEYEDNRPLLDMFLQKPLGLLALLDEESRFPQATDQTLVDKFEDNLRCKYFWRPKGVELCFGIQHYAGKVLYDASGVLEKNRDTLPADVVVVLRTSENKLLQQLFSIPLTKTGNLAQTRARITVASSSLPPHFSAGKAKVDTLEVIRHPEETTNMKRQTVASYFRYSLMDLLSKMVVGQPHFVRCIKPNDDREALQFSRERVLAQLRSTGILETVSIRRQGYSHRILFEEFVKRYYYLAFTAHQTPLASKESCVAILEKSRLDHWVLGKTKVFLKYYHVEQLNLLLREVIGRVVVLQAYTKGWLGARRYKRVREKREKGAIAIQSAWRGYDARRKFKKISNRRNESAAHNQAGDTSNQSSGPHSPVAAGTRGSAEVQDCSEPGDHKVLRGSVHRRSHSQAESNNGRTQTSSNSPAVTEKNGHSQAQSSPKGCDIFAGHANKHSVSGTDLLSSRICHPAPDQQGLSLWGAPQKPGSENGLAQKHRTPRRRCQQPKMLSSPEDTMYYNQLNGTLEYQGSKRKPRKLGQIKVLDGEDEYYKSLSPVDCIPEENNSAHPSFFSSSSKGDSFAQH
Sequence of UniProt Q59H18 (whole entry, looked up): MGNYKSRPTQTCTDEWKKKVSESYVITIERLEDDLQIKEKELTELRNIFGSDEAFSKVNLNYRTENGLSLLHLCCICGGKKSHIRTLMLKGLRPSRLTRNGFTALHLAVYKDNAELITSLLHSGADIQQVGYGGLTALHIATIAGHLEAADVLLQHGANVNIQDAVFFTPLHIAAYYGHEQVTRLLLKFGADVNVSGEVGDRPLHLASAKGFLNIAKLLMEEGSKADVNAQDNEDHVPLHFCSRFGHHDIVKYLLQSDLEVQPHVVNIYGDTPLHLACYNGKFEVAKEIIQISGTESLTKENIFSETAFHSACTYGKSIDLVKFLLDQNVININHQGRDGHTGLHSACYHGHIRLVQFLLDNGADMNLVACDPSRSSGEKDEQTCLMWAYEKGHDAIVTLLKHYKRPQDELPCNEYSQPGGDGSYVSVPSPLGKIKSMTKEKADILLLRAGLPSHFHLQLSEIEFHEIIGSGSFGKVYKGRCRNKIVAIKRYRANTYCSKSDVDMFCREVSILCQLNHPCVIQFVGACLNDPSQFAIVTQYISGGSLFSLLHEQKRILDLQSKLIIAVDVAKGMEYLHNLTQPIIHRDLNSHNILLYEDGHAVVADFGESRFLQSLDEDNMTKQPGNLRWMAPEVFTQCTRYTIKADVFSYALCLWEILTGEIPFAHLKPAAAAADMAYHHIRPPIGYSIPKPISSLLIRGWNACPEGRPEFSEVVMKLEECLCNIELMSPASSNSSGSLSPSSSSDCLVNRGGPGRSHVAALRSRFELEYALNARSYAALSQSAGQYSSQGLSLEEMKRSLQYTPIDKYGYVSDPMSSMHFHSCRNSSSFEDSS
Sequence of UniProt Q96Q40 (whole entry, looked up): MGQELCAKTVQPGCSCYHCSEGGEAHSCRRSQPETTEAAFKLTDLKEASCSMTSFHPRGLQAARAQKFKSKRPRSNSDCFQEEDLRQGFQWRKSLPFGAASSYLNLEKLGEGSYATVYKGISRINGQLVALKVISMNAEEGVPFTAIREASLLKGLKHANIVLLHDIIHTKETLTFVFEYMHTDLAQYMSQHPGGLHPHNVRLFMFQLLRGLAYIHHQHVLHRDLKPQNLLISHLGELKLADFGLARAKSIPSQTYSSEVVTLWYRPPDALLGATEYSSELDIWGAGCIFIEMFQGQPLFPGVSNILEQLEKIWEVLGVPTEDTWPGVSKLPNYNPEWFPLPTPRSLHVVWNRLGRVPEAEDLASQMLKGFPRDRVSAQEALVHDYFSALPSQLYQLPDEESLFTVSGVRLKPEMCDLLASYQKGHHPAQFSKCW
Sequence of UniProt Q9BUB5 (whole entry, looked up): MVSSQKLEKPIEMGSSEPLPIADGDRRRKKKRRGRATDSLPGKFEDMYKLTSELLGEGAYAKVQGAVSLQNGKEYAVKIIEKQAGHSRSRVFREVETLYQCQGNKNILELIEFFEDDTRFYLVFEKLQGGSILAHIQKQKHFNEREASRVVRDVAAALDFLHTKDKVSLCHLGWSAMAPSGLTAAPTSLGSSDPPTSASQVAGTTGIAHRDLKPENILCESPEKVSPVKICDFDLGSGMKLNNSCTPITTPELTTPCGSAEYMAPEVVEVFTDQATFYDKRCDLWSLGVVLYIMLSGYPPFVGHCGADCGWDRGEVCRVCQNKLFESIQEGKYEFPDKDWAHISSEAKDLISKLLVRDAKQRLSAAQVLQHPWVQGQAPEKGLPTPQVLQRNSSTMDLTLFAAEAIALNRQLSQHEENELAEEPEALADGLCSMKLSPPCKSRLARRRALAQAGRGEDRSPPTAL
Sequence of UniProt P10721 (whole entry, unmodified, looked up): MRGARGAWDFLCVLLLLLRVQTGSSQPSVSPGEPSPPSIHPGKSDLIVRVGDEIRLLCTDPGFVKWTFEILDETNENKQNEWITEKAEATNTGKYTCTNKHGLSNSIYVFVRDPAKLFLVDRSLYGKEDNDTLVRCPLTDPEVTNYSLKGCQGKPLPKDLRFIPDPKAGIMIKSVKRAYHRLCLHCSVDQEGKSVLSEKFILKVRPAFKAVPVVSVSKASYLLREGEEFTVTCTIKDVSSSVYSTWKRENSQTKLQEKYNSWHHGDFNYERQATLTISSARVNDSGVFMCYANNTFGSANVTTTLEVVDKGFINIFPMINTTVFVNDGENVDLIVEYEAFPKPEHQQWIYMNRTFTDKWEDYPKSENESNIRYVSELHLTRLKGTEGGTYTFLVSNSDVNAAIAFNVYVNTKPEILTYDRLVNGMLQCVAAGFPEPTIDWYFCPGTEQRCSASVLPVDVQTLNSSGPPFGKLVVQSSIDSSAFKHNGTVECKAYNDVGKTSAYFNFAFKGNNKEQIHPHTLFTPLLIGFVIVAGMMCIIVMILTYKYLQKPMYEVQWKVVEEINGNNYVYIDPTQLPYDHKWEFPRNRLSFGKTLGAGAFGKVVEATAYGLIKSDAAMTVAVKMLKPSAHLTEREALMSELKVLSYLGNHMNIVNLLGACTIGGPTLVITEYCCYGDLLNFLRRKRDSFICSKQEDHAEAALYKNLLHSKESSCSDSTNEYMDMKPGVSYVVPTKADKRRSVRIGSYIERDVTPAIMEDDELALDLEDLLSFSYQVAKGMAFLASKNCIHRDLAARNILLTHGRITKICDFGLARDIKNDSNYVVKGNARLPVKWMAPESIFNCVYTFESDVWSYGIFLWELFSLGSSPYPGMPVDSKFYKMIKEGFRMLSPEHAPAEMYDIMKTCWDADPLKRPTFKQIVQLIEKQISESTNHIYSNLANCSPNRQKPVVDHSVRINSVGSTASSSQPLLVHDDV

Block 1
SMILES: Cc1cc(-n2nc(Cc3cc(F)cc(C(F)(F)F)c3)nc2C)ccc1C(N)=O
Technique: competition with immobilised ligand
Tested at: 1 µM
For CDK15 (Homo sapiens, UniProt Q96Q40); cell-free assay: remaining binding read 88%.
It gave 100% for remaining binding (LYN (Homo sapiens, UniProt P07948); cell-free assay).
The remaining binding was 100% (IRAK3 (Homo sapiens, UniProt Q9Y616); cell-free assay).
CLK2 (Homo sapiens, UniProt P49760); cell-free assay — remaining binding: 94%.
The remaining binding was 100% (CDK11A (Homo sapiens, UniProt Q9UQ88); binding).
It gave 100% for remaining binding (EGFR (Homo sapiens, UniProt P00533, A750P/del747-749); cell-free assay).
PAK1 (Homo sapiens, UniProt Q13153); cell-free assay — remaining binding: 95%.
The remaining binding was 97% (NEK7 (Homo sapiens, UniProt Q8TDX7); cell-free assay).
The remaining binding was 100% (TNNI3K (Homo sapiens, UniProt Q59H18); cell-free assay).
The remaining binding was 100% (MKNK1 (Homo sapiens, UniProt Q9BUB5); cell-free assay).
The remaining binding was 100% (ACVR2A (Homo sapiens, UniProt P27037); cell-free assay).
KIT (Homo sapiens, UniProt P10721, D816H); cell-free assay — remaining binding: 100%.
The remaining binding was 100% (FLT3 (Homo sapiens, UniProt P36888, D835V); cell-free assay).
RIPK4 (Homo sapiens, UniProt P57078); cell-free assay — remaining binding: 95%.
It gave 100% for remaining binding (Myosin-IIIb (MYO3B, Homo sapiens, UniProt Q8WXR4); binding).

Block 2
Target: MAFK, bZIP domain (human)
Technique: DHFR protein complementation
Matrix: yeast
Setting: single substitutions, most at no-binding floor
Relative to: wild-type JUN-FOS pair
Direction: higher = stronger binding
Starting sequence: JUN, bZIP domain (human); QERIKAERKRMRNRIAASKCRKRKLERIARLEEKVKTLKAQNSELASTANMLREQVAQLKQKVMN; partner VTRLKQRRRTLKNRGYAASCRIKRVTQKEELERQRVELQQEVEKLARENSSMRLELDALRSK
The binding fitness of `S43P` is reported as -1.52 natural log.
`A29N` has a binding fitness of -1.37 natural log.
The binding fitness of `E32F` is reported as -1.43 natural log.
`L45F` gave a binding fitness of -1.55 natural log.
The binding fitness of `R30W` is reported as -1.5 natural log.
`T37N` has a binding fitness of -1.49 natural log.
With `L31G` the binding fitness was -1.49 natural log.
`N42P` has a binding fitness of -1.51 natural log.

Block 3
Target: Testis-specific serine/threonine-protein kinase 2 (TSSK2, Homo sapiens, UniProt Q96PF2)
Observed: enzyme activity
Mode: inhibitor
Tested at: 0.5 µM
Relative to: control
Construct (Q96PF2 1-358): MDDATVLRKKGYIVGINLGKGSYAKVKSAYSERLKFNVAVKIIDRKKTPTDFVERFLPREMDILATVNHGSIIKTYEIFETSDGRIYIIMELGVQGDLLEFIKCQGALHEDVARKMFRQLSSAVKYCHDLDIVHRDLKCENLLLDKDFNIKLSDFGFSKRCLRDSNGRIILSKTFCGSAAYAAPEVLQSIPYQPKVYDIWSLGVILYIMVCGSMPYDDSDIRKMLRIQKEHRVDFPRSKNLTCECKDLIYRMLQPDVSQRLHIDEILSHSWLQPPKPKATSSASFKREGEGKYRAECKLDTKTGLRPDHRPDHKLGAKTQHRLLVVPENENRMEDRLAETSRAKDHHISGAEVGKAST
`C[C@@H]1CCN(C(=O)CC#N)C[C@@H]1N(C)c1ncnc2[nH]ccc12` gave a remaining activity of 87.9%.
`O=C1c2ccccc2-c2n[nH]c3cccc1c23` gave a remaining activity of 98.9%.
With `Cc1nc2cc3nc(-c4cccs4)cnc3cc2n1C` the remaining activity was 98.2%.
The remaining activity of `Cc1cc2ncc(-c3ccccc3)nc2cc1C` is reported as 87.5%.
`Ic1cccc(CSc2nnc(-c3ccncc3)o2)c1` has a remaining activity of 110%.
For `CN([C@@H](Cc1ccc(OS(=O)(=O)c2cccc3cnccc23)cc1)C(=O)N1CCN(c2ccccc2)CC1)S(=O)(=O)c1cccc2cnccc12`, the remaining activity was 105%.
`CN(C)C[C@H]1CCn2c(c(C3=C(c4cn(C)c5ccccc45)C(=O)NC3=O)c3ccccc32)C1` gave a remaining activity of 97.1%.
With `O=C(NC(NC(=S)Nc1ccc(F)c([N+](=O)[O-])c1)C(Cl)(Cl)Cl)C(c1ccccc1)c1ccccc1` (stereo not shown) the remaining activity was 92.7%.
The remaining activity of `N#C/C(=C\c1ccc(O)c(O)c1)C(=O)NCc1ccccc1` is reported as 90%.
`CCOc1nc(NC(=O)Cc2cc(OC)ccc2OC)cc(N)c1C#N` gave a remaining activity of 91.2%.
`O=C(Nc1cccc(Nc2nccc(Nc3cccc(C(F)(F)F)c3)n2)c1)C1CC1` has a remaining activity of 97.1%.
The remaining activity of `Cn1nc2c3c(cccc31)C(=O)c1ccccc1-2` is reported as 95.4%.

Block 4
Target: Cyclic AMP-responsive element-binding protein 1, full length (CREB1, Homo sapiens, UniProt P16220, residues 1-327)
Sequence of UniProt P16220 (whole entry, looked up): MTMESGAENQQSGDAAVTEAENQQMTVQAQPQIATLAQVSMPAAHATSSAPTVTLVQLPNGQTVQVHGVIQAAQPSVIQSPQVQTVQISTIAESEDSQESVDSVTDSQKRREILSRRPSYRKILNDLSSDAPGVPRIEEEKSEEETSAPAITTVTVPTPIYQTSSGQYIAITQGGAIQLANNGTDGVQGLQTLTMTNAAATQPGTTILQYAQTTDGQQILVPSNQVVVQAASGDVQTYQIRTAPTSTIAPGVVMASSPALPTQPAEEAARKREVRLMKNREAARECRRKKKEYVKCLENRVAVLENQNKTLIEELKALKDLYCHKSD
Technique: protein-binding microarray
Molecule type: hairpin DNA
Matrix: in vitro
Tested at: not given
Setting: whole hairpin DNA, median over replicate spots
Relative to: not given
Direction: higher = stronger binding
Constant ends, left off below: GAGGCCG … CGGCCTCACACTC
The median fluorescence of `ACGACGTGGTGCCTCCTGGCACCACGTCGT (5mC at 9 29 30 35)` is reported as 5470 a.u.
`GCTGACCTCAGCCTCCTGGCTGAGGTCAGC (5mC at 14)` gave a median fluorescence of 2350 a.u.
`GCTGACGCGAGCCTCCTGGCTCGCGTCAGC (5mC at 15)` gave a median fluorescence of 5600 a.u.
`ACGGCGTCGTGCCTCCTGGCACGACGCCGT (5mC at 9 15 29 34 35)` has a median fluorescence of 3670 a.u.
The median fluorescence of `GATGACGTCAGCCTCCTGGCTGACGTCATC (5mC at 13)` is reported as 7620 a.u.
For `GCTGACGTCAGCCTCCTGGCTGACGTCAGC (5mC at 13 31)`, the median fluorescence was 2760 a.u.
The median fluorescence of `ACGACGGCGTGCCTCCTGGCACGCCGTCGT (5mC at 9 15 29 35)` is reported as 3210 a.u.
`ACGACGCGGTGCCTCCTGGCACCGCGTCGT (5mC at 9 29 35)` has a median fluorescence of 3760 a.u.

For quick reference, copied from above (block 1):
The remaining binding was 97% (NEK7 (Homo sapiens, UniProt Q8TDX7); cell-free assay).
The remaining binding was 100% (TNNI3K (Homo sapiens, UniProt Q59H18); cell-free assay).
The remaining binding was 100% (MKNK1 (Homo sapiens, UniProt Q9BUB5); cell-free assay).
The remaining binding was 100% (ACVR2A (Homo sapiens, UniProt P27037); cell-free assay).
KIT (Homo sapiens, UniProt P10721, D816H); cell-free assay — remaining binding: 100%.
